Assay results gathered from unrelated publications.
Compare with care: the assays were run in different laboratories. “And” joins repeats or separate records; there may be more than shown. ± gives the spread as reported.
DCPS: m7GpppX diphosphatase (DCPS, Homo sapiens, UniProt Q96C86)
CASP8: Caspase-8 (CASP8, Homo sapiens, UniProt Q14790)
CASP10: Caspase-10 (CASP10, Homo sapiens, UniProt Q92851)
MAPT: Microtubule-associated protein tau (MAPT, Homo sapiens, UniProt P10636)
HSD3B1: 3 beta-hydroxysteroid dehydrogenase/Delta 5-->4-isomerase type 1 (HSD3B1, Homo sapiens, UniProt P14060)

Compound	target	assay	test system	setting	how to read	endpoint	result
Nc1ncc2c(n1)-c1c([nH]c3ccc(C4=CCOCC4)cc13)CCC2	Tyrosine-protein kinase ABL1, non-phosphorylated (ABL1, Homo sapiens, UniProt P00519, T315I)	binding, competition with immobilised ligand		1 µM		remaining binding	96%
COc1cccc(Nc2cc(=O)oc3ccccc23)c1	ADRA1A (Homo sapiens, UniProt P35348)	intracellular Ca2+ mobilization, agonist	COS-7	500 µM	relative to: 3 µM ionomycin	agonist activity	21 ± 3.86%
C#CCCCCNC(=O)c1ccc(N(C(=O)C=C)c2ccc(Br)cc2)cc1	Cytoskeleton-associated protein 4 (Homo sapiens, UniProt Q07065)	mass spectrometry profiling	Ramos cell lysate	100 µM over 10 µM, UniProt Q07065	relative to: high over low concentration	reactivity ratio	1.08
C[n+]1cn([C@@H]2O[C@H](COP(=O)([O-])OP(=O)(O)CP(=O)(O)OP(=O)(O)OC[C@H]3O[C@@H](n4cnc5c(=O)[nH]c(N)nc54)[C@H](O)[C@@H]3O)[C@@H](O)[C@H]2O)c2nc(N)nc(O)c21	DCPS	substrate, HPLC		concentration not given, 120 min		hydrolysis	0%
C=C1C(=O)C2(C(=O)N3CCN(c4ccc(Br)cc4)CC3)CC(=O)CC1C2 (racemic)	PTPN11 (Homo sapiens, UniProt Q06124)	enzyme activity, covalent inhibitor		with: pNPP		kinact	0.0219 s⁻¹
CC(=O)N[C@@H](CCC(C)C)C(=O)N[C@@H](CCC(=O)O)C(=O)N[C@@H](C)C(=O)N[C@@H](CC(=O)O)C(=O)COC(=O)c1c(C)cccc1C	CASP8	enzyme activity, inhibitor				kinact/KI	978000 M⁻¹ s⁻¹
CC(=O)N1c2ccc(-c3ccc(CNC(=O)c4cn5cc(-c6cnc(N)nc6)nc(N6CCOCC6)c5n4)cc3)cc2CC[C@@H]1C	KAT2A (Homo sapiens, UniProt Q92830)	binding, competition with immobilised ligand		10 µM		remaining binding	84%
CC(=O)N[C@@H](CC(=O)O)C(=O)N[C@@H](CC(C)C)C(=O)N[C@@H](C)C(=O)N[C@@H](CC(=O)O)C(=O)COC(=O)c1c(C)cccc1C	CASP10	enzyme activity, inhibitor				kinact/KI	187000 M⁻¹ s⁻¹
CCCCCC=CC=C1C(=O)C=CC1CC=CCCCC(=O)O (stereo not shown)	Desumoylating isopeptidase 1 (DESI1, Homo sapiens, UniProt Q6ICB0)	competitive isoTOP-ABPP	Ramos soluble proteome	100 µM, with: iodoacetamide probe	relative to: DMSO over compound-treated, higher = stronger cysteine blockade	isoTOP-ABPP competition ratio	1.1
CC[C@H](C)[C@H](NC(=O)[C@@H](NC(=O)[C@H](CCCCN)NC(=O)[C@@H](NC(=O)CNC(=O)[C@@H](N)CCCNC(=N)N)[C@@H](C)O)C(C)C)C(=O)N[C@@H](CC(C)C)C(=O)N[C@@H](Cc1c[nH]cn1)C(=O)N[C@@H](CC(C)C)C(N)=O	MAPT	fibril formation, ThT fluorescence		1-fold of tau, at plateau, with: wild-type tau 10 µM, heparin	relative to: untreated	ThT fluorescence	6 ± 3%
CNCc1cc(-c2coc3cc(O)ccc3c2=O)ccc1Cl	HSD3B1	[3H]-DHEA conversion	LNCaP	0.1 µM, normalized to protein, unit not given	relative to: vehicle	DHEA metabolism	1.01
CN1CCN(Cc2ccc(NC(=O)c3cccc(C#Cc4cnc(N)c5ncccc45)c3)cc2C(F)(F)F)CC1	MAP3K4 (Homo sapiens, UniProt Q9Y6R4)	cell-free assay, competition with immobilised ligand		50 nM		remaining binding	100%
CC[C@H](NC(=O)[C@@H](NC(=O)[C@@H](NC(C)=O)C(C)C)C(C)(C)C)C(=O)N[C@@H](CC(=O)O)C(=O)COC(=O)c1c(C)cccc1C	CASP10	enzyme activity, inhibitor				kinact/KI	259000 M⁻¹ s⁻¹
CC[C@H](C)[C@H](NC(=O)[C@@H](NC(=O)[C@@H](NC(=O)[C@@H](NC(=O)[C@@H](N)CCCCN)C(C)C)C(C)C)C(C)C)C(=O)N[C@H](C(N)=O)[C@@H](C)O	MAPT	fibril formation, ThT fluorescence		1-fold of tau, at plateau, with: wild-type tau 10 µM, heparin	relative to: untreated	ThT fluorescence	102 ± 5%
CC(=O)c1cnc(N)nc1N1CC[C@H]1c1nn2ccc(Cl)c2c(=O)n1-c1ccccc1	PIK3CB (Homo sapiens, UniProt P42338)	KiNativ	intact human PBMC	1 µM, 1 h		target engagement	12.3%
Cc1cc(=O)oc2cc(NC(=O)CCCCCCCC(=O)NO)ccc12	HDAC8 (Homo sapiens, UniProt Q9BY41)	ITC	Tris-HCl buffer	278 K		TΔS°	5.1 kcal/mol
CC[C@H](NC(=O)[C@H](CC(C)C)NC(=O)[C@H](CC(=O)O)NC(C)=O)C(=O)N[C@@H](CC(=O)O)C(=O)COC(=O)c1c(C)cccc1C	CASP8	enzyme activity, inhibitor				kinact/KI	1.15e+06 M⁻¹ s⁻¹
C=CC(=O)N1CCCC(n2c(=O)c3ncccc3n(Cc3ccc(Oc4ccccc4)cc3)c2=O)C1 (stereo not shown)	GSPT1 (Homo sapiens, UniProt P15170)	thermal proteome profiling	cell proteome	treated		melting temperature	49.9 °C and 53 °C
Cc1cnc2nc1Nc1cccc(c1)COC/C=C/COCc1cc(ccc1OCCN1CCOCC1)N2	PNCK (Homo sapiens, UniProt Q6P2M8)	binding		0.1 µM		remaining binding	84%

Compound	target	assay	test system	setting	how to read	endpoint	result
CN(C)CCCSC(=S)N1CCN(C(=O)/C=C/c2coc3ccccc3c2=O)CC1	Nucleoprotein (N, Tomato spotted wilt virus, UniProt P25999)	binding, microscale thermophoresis		0.9766 µM	dose series	normalised MST response	0.0239
CCCCCC(O)/C=C/C=O (stereo not shown)	F-box only protein 30 (FBXO30, Homo sapiens, UniProt Q8TB52)	competitive isoTOP-ABPP	Ramos soluble proteome	100 µM, 60 min, with: iodoacetamide probe	relative to: DMSO over compound-treated, higher = stronger cysteine blockade	isoTOP-ABPP competition ratio	1.5
C[C@@H](Nc1nc(N[C@H](C)C(F)(F)F)nc(-c2cccc(Cl)n2)n1)C(F)(F)F	IDH1 (Homo sapiens, UniProt O75874, R132H)	item: 2-hydroxyglutarate	HCT-116			maximal inhibition	90%
CC(C=CC=C(C)C=CC1=C(C)CCCC1(C)C)=CC=O	Rhodopsin (RHO, Homo sapiens, UniProt P08100, E181K)	ER retention, immunostaining co-localization, item: opsin with calnexin	COS-7 transfected E181K	30.00 µM		Pearson correlation coefficient	0.46
Fc1ccc(Nc2nc(NC3CCCCC3)c3cc(Br)ccc3n2)cc1F	ADRB2 (Homo sapiens, UniProt P07550, I153L)	β-arrestin2 recruitment, antagonist, BRET		mutant I153L	relative to: isoprenaline maximal response	maximal inhibition	1.5%
CC(C)Oc1cc(Cl)ccc1CNc1cc(-c2ccccc2)nc2ncnn12	GPR3 (Homo sapiens, UniProt P46089, V196W)	cAMP level, cAMP GloSensor		100 nM	higher = more cAMP	cAMP luminescence	51500 a.u. and 47500 a.u. and 32900 a.u. and 31600 a.u.
N[C@H]1CC[C@H](Nc2nccc(-c3cccnc3Oc3ccc(NC(=O)NC4CC4)c4ccccc34)n2)CC1	PXK (Homo sapiens, UniProt Q7Z7A4)	kinobead competition pulldown	HEK293/HCT116 lysate mixture	10 µM, 1 h, 4 °C	lower = stronger competition	log2 LFQ intensity	19 and 22.6 and 21.3 and 19.1
CC[C@H](C)[C@H](NC(=O)[C@H](CCC(=O)O)NC(=O)[C@H](Cc1ccc(I)cc1)NC(C)=O)C(=O)N[C@@H](CC(=O)O)C(=O)COC(=O)c1c(C)cccc1C	CASP10	enzyme activity, inhibitor				kinact/KI	235000 M⁻¹ s⁻¹
O=C(O)c1ccc(-c2coc3cc(O)ccc3c2=O)cc1	HSD3B1	[3H]-DHEA conversion	LNCaP	0.1 µM, normalized to protein, unit not given	relative to: vehicle	DHEA metabolism	0
Cn1cc(-c2cc(N3CCCCS3(=O)=O)ccc2N[C@H]2CC[C@H](C)CC2)c2cc[nH]c2c1=O (stereo in doubt)	BRD7 (Homo sapiens, UniProt Q9NPI1)	binding, competition with immobilised ligand		1 µM		remaining binding	100%
CC(=O)N[C@@H](CC(=O)O)C(=O)N[C@@H](CO)C(=O)N[C@@H](C)C(=O)N[C@@H](CC(=O)O)C(=O)COC(=O)c1c(C)cccc1C	CASP8	enzyme activity, inhibitor				kinact/KI	84000 M⁻¹ s⁻¹
CC[C@H](C)[C@@H]1NC(=O)[C@H](Cc2ccccc2)NC(=O)[C@H](CCC(=O)O)NC(=O)[C@H](CCCNC(=N)N)NC(=O)CNC(=O)[C@@H](NC(=O)[C@H](CC(C)C)NC(=O)[C@H](CCCNC(=N)N)NC(=O)[C@@H](NC(=O)CNC(=O)[C@H](Cc2ccc(O)cc2)NC(=O)[C@@H]2CCCN2C(=O)[C@H](C)NC(=O)[C@H](C)NC(=O)[C@@H](N)CCCNC(=N)N)C(C)C)CSSC[C@@H]2NC(=O)[C@@H](NC(=O)[C@H](CO)NC(=O)[C@H](CO)NC(=O)[C@H](CO)NC(=O)[C@H](CC(C)C)NC(=O)CNC(=O)[C@H](C)NC(=O)[C@H](CC(C)C)NC(=O)[C@@H](NC(=O)[C@@H](N)CC(=O)O)C(C)C)CSSC[C@H](NC(=O)CNC(=O)[C@H](Cc3c[nH]c4ccccc34)NC(=O)[C@H](CCCCN)NC2=O)C(=O)N[C@@H](CO)C(=O)N[C@@H](CCCCN)C(=O)N[C@@H](CO)C(=O)N[C@@H](CCC(=O)O)C(=O)N[C@@H]([C@@H](C)CC)C(=O)N[C@@H](CO)C(=O)N[C@@H](CO)C(=O)N[C@@H](CC(C)C)C(=O)N[C@H](C(=O)O)CSSC[C@@H](C(=O)NCC(=O)NCC(=O)N[C@@H](CO)C(=O)N[C@@H](CCCNC(=N)N)C(=O)N[C@@H](Cc2c[nH]c3ccccc23)C(=O)O)NC(=O)[C@H]([C@@H](C)O)NC(=O)[C@H](Cc2ccccc2)NC(=O)[C@H]([C@@H](C)CC)NC(=O)[C@H](C(C)C)NC(=O)[C@H](C)NC(=O)[C@H](CCCNC(=N)N)NC1=O	RXFP3 (Homo sapiens, UniProt Q9NSD7)	agonist		15.6 nM, wild-type receptor		cAMP accumulation	1.56% and -1.46% and 1.41%
O=C1c2sc(-c3ccc(N4CCC(F)C4)nc3F)nc2CCN1c1cccnc1 (stereo not shown)	TAR DNA-binding protein 43, aggregated (TARDBP, Homo sapiens, UniProt Q13148)	saturation autoradiography	human, FTLD-TDP type A brain sections	31.25 nM		specific binding	202 nM
Cc1cn(CC(=O)N(CC(=O)N[C@H]2COC[C@@H]2N(CC(=O)NCCOCCOCC(N)=O)C(=O)Cn2cnc3c(N)ncnc32)[C@H]2COC[C@@H]2NC(=O)CN(C(=O)Cn2cnc3c(N)ncnc32)[C@H]2COC[C@@H]2NC(=O)CN(C(=O)Cn2cnc3c(=O)[nH]c(N)nc32)[C@H]2COC[C@@H]2NC(=O)CN(C(=O)Cn2cc(C)c(=O)[nH]c2=O)[C@H]2COC[C@@H]2NC(=O)CN(C(=O)Cn2cnc3c(=O)[nH]c(N)nc32)[C@H]2COC[C@@H]2NC(=O)CN(C(=O)Cn2cc(C)c(=O)[nH]c2=O)[C@H]2COC[C@@H]2NC(=O)CN(C(=O)Cn2cnc3c(N)ncnc32)[C@H]2COC[C@@H]2NC(=O)CN(C(=O)Cn2cnc3c(=O)[nH]c(N)nc32)[C@H]2COC[C@@H]2N)c(=O)[nH]c1=O	complementary DNA	duplex formation, UV melting curve fit	PBS	1 µM		ΔS	-187 ± 2 cal/mol/K
CC(=O)N[C@@H](CC(=O)O)C(=O)N[C@@H](Cc1ccc2ccccc2c1)C(=O)N[C@@H](C)C(=O)N[C@@H](CC(=O)O)C(=O)COC(=O)c1c(C)cccc1C	CASP8	enzyme activity, inhibitor				kinact/KI	108000 M⁻¹ s⁻¹
C#CCOC(=O)[C@]1(C)C=C(C(=O)OC(C)(C)C)C(=O)CC1	MAPK8 (Homo sapiens, UniProt P45983)	enzyme activity, D-SENSOR		4.938 µM, mean of replicates		normalized kinase activity	0.967
CC(=O)N[C@@H](Cc1ccc(I)cc1)C(=O)N[C@@H](CCC(=O)O)C(=O)N[C@H](C(=O)N[C@@H](CC(=O)O)C(=O)COC(=O)c1c(C)cccc1C)[C@@H](C)O	CASP10	enzyme activity, inhibitor				kinact/KI	154000 M⁻¹ s⁻¹
C[n+]1cn(C2OC(COP(=O)(O)OP(=O)([O-])C(Cl)(Cl)P(=O)(O)OP(=O)(O)OCC3OC(n4cnc5c(=O)[nH]c(N)nc54)C(O)C3O)C(O)C2O)c2nc(N)nc(O)c21 (stereo not shown)	DCPS	substrate, HPLC		concentration not given, 30 min		hydrolysis	0%
